Measurements collected from several papers.
A part holds a random share of what one study measured.

Block 1
Target: Sal-like protein 4, full length isoform A (SALL4, Homo sapiens, UniProt Q9UJQ4, residues 1-1053)
UniProt Q9UJQ4, sequence (whole entry, looked up): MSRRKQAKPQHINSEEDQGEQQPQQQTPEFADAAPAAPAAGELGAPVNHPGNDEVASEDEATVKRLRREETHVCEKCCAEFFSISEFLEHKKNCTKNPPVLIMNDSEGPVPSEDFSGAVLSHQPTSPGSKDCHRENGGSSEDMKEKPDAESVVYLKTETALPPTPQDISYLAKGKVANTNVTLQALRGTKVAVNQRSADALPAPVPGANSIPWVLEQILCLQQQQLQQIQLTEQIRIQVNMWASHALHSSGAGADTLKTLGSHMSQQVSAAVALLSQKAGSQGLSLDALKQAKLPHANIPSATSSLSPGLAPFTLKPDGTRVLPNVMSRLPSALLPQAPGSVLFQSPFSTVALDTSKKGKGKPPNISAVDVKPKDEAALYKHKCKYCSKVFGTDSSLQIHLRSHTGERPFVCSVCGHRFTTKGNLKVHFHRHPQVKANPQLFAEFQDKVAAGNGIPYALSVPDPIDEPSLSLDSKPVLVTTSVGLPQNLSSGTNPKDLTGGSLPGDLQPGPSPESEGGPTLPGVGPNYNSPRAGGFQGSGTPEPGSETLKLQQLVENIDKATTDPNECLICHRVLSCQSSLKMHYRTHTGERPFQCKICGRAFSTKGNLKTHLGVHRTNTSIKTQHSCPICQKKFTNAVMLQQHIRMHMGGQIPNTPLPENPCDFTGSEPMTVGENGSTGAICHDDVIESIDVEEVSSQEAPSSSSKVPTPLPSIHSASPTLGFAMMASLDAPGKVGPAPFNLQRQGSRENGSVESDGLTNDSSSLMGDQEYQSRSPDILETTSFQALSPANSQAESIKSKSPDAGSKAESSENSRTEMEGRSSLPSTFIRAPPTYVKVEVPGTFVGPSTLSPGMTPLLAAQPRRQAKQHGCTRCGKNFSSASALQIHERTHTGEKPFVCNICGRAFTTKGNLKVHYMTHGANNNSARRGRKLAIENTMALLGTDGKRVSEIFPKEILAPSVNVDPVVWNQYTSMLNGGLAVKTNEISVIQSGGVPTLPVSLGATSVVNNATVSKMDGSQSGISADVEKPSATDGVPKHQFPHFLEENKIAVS
Technique: universal PBM
Molecule type: double-stranded DNA, one strand shown
Matrix: in vitro
Concentration: 600 nM
Notes: 8-mer, flanks averaged, mean of replicates
Reading: higher = stronger binding
Oligonucleotide	E-score
TATTTGAA	0.354
GATCCCCA	-0.185
GCGTTTGA	-0.0266
GTTTCCGA	-0.212
AACCGGTC	-0.0778
CCGTTGTC	-0.188
CCGCCTTA	-0.105
CATACGAA	0.15
CATCTGGC	-0.151
ACCGGTGA	-0.195
ATAATCTG	0.249
ATCCCCGA	-0.0812
CTTATGTA	0.323
AGCGAGGG	-0.0958
CACTGGAG	-0.215
AGAGTACG	-0.0413
CCGATGCA	-0.214
GGTTCATA	0.205

Block 2
Target: PABPC1L2, full length, GST fusion (mouse, UniProt A0ABA7IW68)
Technique: RNAcompete
Molecule type: RNA
Matrix: in vitro
Concentration: 20 nM
Notes: 7-mer, probes averaged, single round
Baseline: mean of 7-mers
Reading: higher = stronger binding
Construct (chain): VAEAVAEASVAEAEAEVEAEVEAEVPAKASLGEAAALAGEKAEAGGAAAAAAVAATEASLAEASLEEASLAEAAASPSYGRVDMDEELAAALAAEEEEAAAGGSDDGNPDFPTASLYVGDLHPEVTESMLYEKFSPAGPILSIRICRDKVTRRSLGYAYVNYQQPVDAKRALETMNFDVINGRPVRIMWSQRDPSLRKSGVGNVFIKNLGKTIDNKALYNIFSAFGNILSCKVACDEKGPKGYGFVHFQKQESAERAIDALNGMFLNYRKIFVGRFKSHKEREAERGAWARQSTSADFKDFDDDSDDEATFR
Oligonucleotide	7-mer Z-score
AGCACCG	-0.166
AUAUUCU	-0.226
CGGGUUG	-0.0971
CGCCGAG	-0.193
GUACAGG	0.148
UCUGACA	-0.0899
CGGUAGG	-0.0518
CACCCAC	-0.251
UAAGAGA	0.0134
GGGUACG	-0.0301
UUCAGGU	-0.304
AAUAAUC	0.403
AAGAAUG	0.447
GGCGUUA	-0.0464
AUUAACU	-0.213
UCUCCCA	-0.3

Block 3
Target: Histone acetyltransferase KAT6A, both winged helices, GST fusion (KAT6A, Homo sapiens, UniProt Q92794, residues 1-181)
Technique: protein binding microarray
Molecule type: double-stranded DNA, one strand shown
Matrix: in vitro
Concentration: not given
Notes: 8-mer, flanks averaged, mean of 2 arrays, mostly near background
Baseline: not given
Reading: higher = stronger binding
Construct (chain): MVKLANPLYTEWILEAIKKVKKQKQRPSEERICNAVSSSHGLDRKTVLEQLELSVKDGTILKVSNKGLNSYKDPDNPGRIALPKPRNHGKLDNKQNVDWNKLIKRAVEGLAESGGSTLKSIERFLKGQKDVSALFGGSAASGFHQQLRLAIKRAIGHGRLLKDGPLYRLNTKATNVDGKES
Oligonucleotide	E-score
ATACGCGG	0.242
GGAGTACC	-0.0121
CTAAGGTC	-0.135
ACTGGCCT	-0.142
CTTGTTGA	-0.0481
TCGGGTAA	0.0902
GGTAATCA	0.0546
AGCTGATG	-0.0569
ACATAGCT	-0.132
CCACGCGC	0.277
GATTGCAC	-0.00324
ACGAGATG	-0.0123
ATGATGTG	-0.0661
AGATTACG	0.152
GCAGCGGA	0.119
CTGGAAAG	-0.259
AAGCAATA	-0.142
AAGTCACG	0.0349
ATGCTCGG	-0.03

Block 4
Target: Centromere-binding protein 1, full length, His-tagged (CBF1, Saccharomyces cerevisiae, UniProt P17106, residues 1-351)
UniProt P17106, sequence (whole entry, looked up): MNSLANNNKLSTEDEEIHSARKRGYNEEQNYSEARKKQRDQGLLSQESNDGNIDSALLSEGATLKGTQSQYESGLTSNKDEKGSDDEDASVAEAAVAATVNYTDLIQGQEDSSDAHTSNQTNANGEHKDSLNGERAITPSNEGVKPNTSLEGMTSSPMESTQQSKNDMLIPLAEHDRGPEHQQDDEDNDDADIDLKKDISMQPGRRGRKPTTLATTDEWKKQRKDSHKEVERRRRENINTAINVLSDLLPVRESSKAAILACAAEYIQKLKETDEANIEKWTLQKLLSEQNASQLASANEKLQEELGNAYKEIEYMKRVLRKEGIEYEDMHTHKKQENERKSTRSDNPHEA
Technique: competition protein-binding microarray
Molecule type: double-stranded DNA, one strand shown
Matrix: in vitro
Concentration: 2 µM
Notes: whole 60-bp probe, lowest competitor level
Added: Pho4 competitor, 0.05 µM
Reading: higher = stronger binding
Oligonucleotide	fluorescence intensity [a.u.]
CTTCTGTAAATTTGTCACTATACTTGACGCGCCCCGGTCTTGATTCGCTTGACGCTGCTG	92.6
TGCGCAACAACTTGCGTAGTGGGTGTATGTCTAGAAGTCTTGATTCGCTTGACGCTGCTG	63.6
GCCCTGTAATGAAGCTGCGTGATGGGACCTGTGCCCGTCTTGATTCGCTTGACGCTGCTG	74.3
CGTCCTAGCGATTGAACAGTGGGTGCCATGAGGAAGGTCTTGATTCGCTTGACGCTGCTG	84.5
CAGGAACCCATAAGTCAGCTGAGCCTGTGTCTAACAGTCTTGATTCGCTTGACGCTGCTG	132
CCTCTTTTAATATGTAACGTGTCGGTTCTATTTATCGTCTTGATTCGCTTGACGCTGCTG	239
AGTGGGATCGTTCGTCACAGCGTCGATAGGGTAAGGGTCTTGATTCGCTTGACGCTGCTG	56.6
AAATTACTAAGTTGTGGAGTGGGTGACGCCGTATGAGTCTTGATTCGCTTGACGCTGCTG	59.3
GGTGCTGTTATTTGTCATGCCATTTGCTCTGGATTAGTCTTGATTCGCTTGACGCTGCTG	83.8
CTAACGAAGGTTTTTCACGTGTACTACAAGCCAAGTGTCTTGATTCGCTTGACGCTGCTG	822
GTCTTGTCTCATTGAACCGTGGGTGTCCCCACTTCAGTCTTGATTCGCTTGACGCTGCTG	72
GTACTAATTACACTGCAAGTGTGCCTATTCTTCCTTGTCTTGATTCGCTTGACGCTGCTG	87.6
CAACACCCTCCAGAGACCGTGCCGAAGTTGTTCGAGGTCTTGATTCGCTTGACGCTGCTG	59.4
CGCCTTAATCGCTCCGGCGTGGGTAAAGAAAGCAGAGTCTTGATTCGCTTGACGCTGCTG	57.4
CTTCTGTAAATTTGTCACCGGACTTGACGCGCCCCGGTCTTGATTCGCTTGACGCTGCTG	113
TTGGAAGAGAACCGTCACGTAGGGATGATTTAGAATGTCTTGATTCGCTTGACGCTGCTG	86.1
CGGGGTTAAGTTTGAAGGGTGGGTGGCTTGCAGCAGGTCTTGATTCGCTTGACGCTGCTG	75
AAAAGCCAACGCCATCACGTGCAAAGAAATATCTGCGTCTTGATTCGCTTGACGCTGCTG	6600
AAATTACTAAGTTGCCCCGTGGGTGACGCCGTATGAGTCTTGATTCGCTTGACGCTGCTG	63.3

Block 5
Target: RNA binding protein fox-1 homolog 2, RRM domain, GST-SBP tag (RBFOX2, Homo sapiens, UniProt O43251-10, residues 100-194)
Technique: RNA Bind-n-Seq
Molecule type: RNA
Matrix: in vitro
Concentration: 365 nM
Notes: natural RNA segment, single round, ends assumed
Baseline: no-protein control
Reading: higher = stronger binding
Target sequence (chain): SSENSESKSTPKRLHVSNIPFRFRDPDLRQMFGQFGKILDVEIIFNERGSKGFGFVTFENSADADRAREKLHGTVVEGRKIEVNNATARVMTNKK
Oligonucleotide	RBNS enrichment (R)
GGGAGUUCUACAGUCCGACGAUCAGCCAUUGUUCUCUCUGGACCACAGCCUGGAAGCUACUCUAAUUCCCUUUUUCUACAUAUGUGUAGAUUCAUUCUAUAAGGUCUGUUCUCUAAAGAACCUUAACUAAUGCUGGAAUUCUCGGGUGCCAA	0.392
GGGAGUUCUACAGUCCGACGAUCAUGUUUUGUUCUGGAAGUUUUAUAGUUUUAGCUCUUAAAUUUGGGCCUGUGAGCUGUUUUAAAUUAAUUUUUAUAUAUGGUAUGAGGUAAAGAUCUAAAUUCCUAUGGAUUGGAAUUCUCGGGUGCCAA	1.01
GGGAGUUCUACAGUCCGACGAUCUUGGGAUUAUAUAAUCUAGGGCCAAGAAGUUUACUGCCUGUGGAGCGGGCAGGAACUCUAGCCACCUUUCUCUGUUACCUGCAGCUGAUUGGCAAGGCUCCUAUGGAGCUUGGAAUUCUCGGGUGCCAA	0.32
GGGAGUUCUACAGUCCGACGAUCAGUGUUCCUCGUGGAGUCAGCCUGAGGUAGAUUUCCAGGAAAGCCUUUUCCUCGUUACCAGUGUGUGAUGUCACAACUGAAACUUGUGUUAGUAACGUCUAAGGCCAUGUUGGAAUUCUCGGGUGCCAA	0.549
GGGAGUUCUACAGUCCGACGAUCUUGGAUGCAUUUUUCAUCAGGCUCAGUGGCUAGCAUCAGUGAACAUUCAGUUUCAGAGGGACAGUUUUGAGGAUUAAGACACUUGGAAACAGAAGAACUCUGGUAAUGCUUGGAAUUCUCGGGUGCCAA	1.36
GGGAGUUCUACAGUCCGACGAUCCACGCCAUCCAGCAGCGCUAAGGUGGACAUGGGAUUCCUCCCUGCGAUGCGUGUCUUUCCCACGCAGAGAAGCCCAGUCUCUUCUCUGGAUCUGGGCCUUUGAACAACUGUGGAAUUCUCGGGUGCCAA	0.553
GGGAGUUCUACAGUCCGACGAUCAUCAGGCAGCCUCCUGAUGCCAGAACACCUCAGGCAGAGCCCUACUCAGCUGUACCUGUCUGCCUGGACUGUCCCCUGUCCCCGCAUCUCCCCUGGGACCAGCUGGAGGGUGGAAUUCUCGGGUGCCAA	0.579
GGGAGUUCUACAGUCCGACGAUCACCGCAGCCUGUCAGCCAACAUUGCCUUGCAUUUGUACCUUAUUGAUCUUUGCCCAUGGAAGUCUCAAAGAUCUUUCGUUGGUUGUUUCUCUGAGCUUUGUUACUGAAAUUGGAAUUCUCGGGUGCCAA	1.92

Repeated from above (block 1):
Oligonucleotide	E-score
GCGTTTGA	-0.0266
TATTTGAA	0.354
CATACGAA	0.15
GGTTCATA	0.205
CACTGGAG	-0.215
AACCGGTC	-0.0778
GTTTCCGA	-0.212
CTTATGTA	0.323
CCGCCTTA	-0.105
AGCGAGGG	-0.0958
ATAATCTG	0.249
